Results pooled from the literature.
Lines come from different studies, so protocols differ. Several values in a cell are separate wells, animals, samples, runs or records. Numbers after ± are the reported error.

CN1Cc2cc(Cl)ccc2-n2c(nnc2C2CCN(c3cccc([18F])n3)CC2)C1 gave a tissue uptake of 2.47 ± 0.33 %ID/g (C57BL/6 mouse male, bone; intravenous, 3.7 MBq, 5 min).
With CC(C)[C@@H]1NC(=O)CNC(=O)[C@H](CC(N)=O)NC(=O)[C@H](CCCNC(=N)N)NC(=O)[C@H](Cc2ccc(O)cc2)NC(=O)[C@H](C(C)C)NC(=O)[C@@H](NC(=O)[C@@H](NC(=O)[C@H](CC(N)=O)NC(=O)[C@H](Cc2c[nH]c3ccccc23)NC(=O)[C@H](C)NC(=O)[C@H](Cc2ccccc2)NC(=O)CNC(=O)[C@H](CCCCN)NC(=O)[C@H](Cc2ccccc2)NC(=O)[C@H](Cc2ccccc2)NC(=O)[C@H](CCCCN)NC(=O)OCC2c3ccccc3-c3ccccc32)C(C)C)CSSC[C@@H](C(=O)N[C@@H](Cc2c[nH]cn2)C(=O)N[C@@H](CCCNC(=N)N)C(=O)N[C@@H](CCCNC(=N)N)C(=O)N[C@@H](C)C(=O)N[C@@H](CC(N)=O)C(N)=O)NC(=O)[C@H](C(C)C)NC(=O)[C@H](CCCNC(=N)N)NC1=O the plateletcrit was 0.03% (ICR mice, blood; intraperitoneal, 5 mg/kg, day 5).
CC(=O)NCCCC[C@@H]1NC(=O)[C@H](Cc2c[nH]c3c(C)cccc23)NC(=O)[C@H]([C@@H](C)O)NC(=O)[C@H](CC(N)=O)NC(=O)[C@@H](NC(C)=O)C(C)(C)SSC(C)(C)[C@@H](C(=O)N[C@@H](Cc2ccc(OCCN)cc2)C(=O)N[C@@H](Cc2ccc3ccccc3c2)C(=O)NC2(C(=O)N[C@@H](CCC(=O)O)C(=O)N[C@@H](CC(N)=O)C(=O)N[C@@H](Cc3cccnc3)C(=O)N(C)CC(N)=O)CCOCC2)NC1=O gave a CL/F of 6530 L/h (human, plasma; oral, 1000 mg, single dose, healthy volunteers).
Under “glucuronide to parent ratio”, CC(CCC(=O)NCC(=O)O)C1CCC2C3CCC4CC(OC5OC(C(=O)O)C(O)C(O)C5O)CCC4(C)C3CC(O)C12C (centres unmarked) is recorded as 1.03 (men, T/C genotype, plasma; dose not given, geometric mean).
The MRT(0-t) of COCC12CCC(OC)C34C5CC6(O)C(OC)C(O)C(O)(C5C6OC(=O)c5ccccc5)C(C(OC)C13)C4N(C)C2 (centres unmarked) is reported as 468 ± 224 min (Sprague-Dawley rat, plasma; oral, dose not given, with H in PCW extract).
For C=C/C=C/C[C@@H](C)[C@@H](O)[C@H]1C(=O)N[C@@H](CC)C(=O)N(C)CC(=O)N(C)[C@@H](CC(C)C)C(=O)N[C@@H](C(C)C)C(=O)N(C)[C@@H](CC(C)C)C(=O)N[C@@H](C)C(=O)N[C@H](C)C(=O)N(C)[C@@H](CC(C)C)C(=O)N(C)[C@@H](CC(C)C)C(=O)N(C)[C@@H](C(C)C)C(=O)N1C, “mean arterial pressure increase” read 9 ± 2 mmHg (radiotelemetry; Wistar Kyoto rats, male; ip, 0.5 mg/kg/day, over 28 days, gradual rise; relative to: vehicle).
C#Cc1c(F)ccc2cc(O)cc(-c3ncc4c(N5CC6CCC(C5)N6C(=O)OC(C)OC(=O)C5CCCC5)nc(OC[C@@]56CCCN5C[C@H](F)C6)nc4c3F)c12 (some centres unmarked) has a t1/2 of 3.25 min (item: prodrug; mouse whole blood; 1 µM).
For CSCC[C@H](NC(=O)CNC(=O)[C@H](CCCCN)NC(=O)[C@H](CC(C)C)NC(=O)[C@@H]1CCCN1C(=O)[C@H](CO)NC(=O)[C@H](Cc1c[nH]cn1)NC(=O)[C@H](Cc1c[nH]c2ccccc12)NC(=O)[C@H](CCCNC(=N)N)NC(=O)[C@H](CC(C)C)NC(=O)[C@H](CCCNC(=N)N)NC(=O)[C@H](Cc1c[nH]c2ccccc12)NC(=O)[C@H](CS)NC(=O)CCCCCNC(=O)CN1CCN(CC(=O)O)CCN(CC(=O)O)CCN(CC(=O)O)CC1)C(=O)O [copper-64 labelled], the tissue uptake was 2.34 %ID/g (ex vivo biodistribution; C57BL/6J mice bearing B16-F10 tumours, heart; intravenous, 1.85 MBq, 30 h).
OCC1OC(n2cnc3c(NCc4ccc(Br)s4)ncnc32)C(O)C1O (centres unmarked): “maximum tolerated dose” ≥ 150 mg/kg/day (Sprague-Dawley rats, both sexes; oral, repeated dosing).
For Cc1nnc(-c2ccc(CC(=O)NCCCC[C@H](NC(=O)c3ccc(OCc4ccc(B(O)O)cc4)c(-c4nc5ccccc5c(=O)[nH]4)c3)C(=O)NCC(=O)NCC(=O)NCC(=O)N[C@@H](Cc3ccccc3)C(=O)N[C@@H](Cc3ccccc3)C(=O)O)cc2)nn1, the remaining compound was 73.5% (UPLC-MS/MS; human serum; 100 µM, 3 h, 37 °C).
For CCCCC/C=C\CCCO[Si](CCCCN(C)C)(OCCC/C=C\CCCCC)OCCC/C=C\CCCCC, the half-life was ~30 min (cynomolgus monkey (Mauritius origin), male, plasma; intravenous infusion, 1 mg/kg, single dose).
The tissue uptake of CC[C@H](C)[C@H](NC(=O)[C@H](CCCCN)NC(=O)CNC(=O)[C@H](CC(C)C)NC(=O)[C@H](Cc1ccccc1)NC(=O)[C@H](CCCCN)NC(=O)[C@H](CO)NC(=O)[C@H](Cc1ccccc1)NC(=O)[C@H](Cc1c[nH]c2ccccc12)NC(=O)[C@H](CCC(N)=O)NC(=O)[C@@H](NC(=O)[C@H](Cc1ccccc1)NC(=O)CCCCCNC(=O)CN1CCN(CC(=O)O)CCN(CC(=O)O)CCN(CC(=O)O)CC1)C(C)C)C(=O)N[C@@H](CCC(=O)O)C(=O)N1CCC[C@H]1C(=O)N[C@@H](CC(=O)O)C(=O)N[C@H](C(=O)N[C@@H](CO)C(=O)N[C@@H](CCC(N)=O)C(=O)N[C@H](C(=O)N[C@@H](CCC(N)=O)C(=O)N[C@@H](CC(=O)O)C(=O)N1CCC[C@H]1C(=O)N[C@@H](CC(N)=O)C(=O)N[C@@H](CC(=O)O)C(=O)N[C@@H](CCC(N)=O)C(=O)N[C@@H](Cc1ccc(O)cc1)C(=O)N[C@@H](CCC(=O)O)C(=O)N1CCC[C@H]1C(=O)N[C@@H](Cc1ccccc1)C(=O)O)C(C)C)C(C)C [copper-64 labelled] is reported as 8.15 ± 1.4 %ID/g (BALB/c mice, male, CT26 tumour-bearing, liver; 2 h, anti-PD1 plus anti-CTLA4 treated).
COc1cnc2cccc(N3CCc4c(cc(Cn5ccnc5)cc4-c4cn(C)nc4C(F)(F)F)C3=O)c2c1 gave a body weight of 21.8 g and 21.6 g and 22.3 g and 24.6 g (BALB/c nude mice, MV4-11 xenograft; intraperitoneal, 75 mg/kg, day 17).
The radioactivity uptake of N#[11C]c1ccc(-c2csc(NN=C3CCCC3)n2)cc1 is reported as 11.5 ± 2.79 %ID/g (C57BL/6 mice, male, bladder; intravenous, 3 MBq, 30 min).
C/C(=N\OCCCN1CCCCC1)c1ccc(C(F)(F)F)cc1 has an AUC(0-t) of 4620 ± 1550 ng·h/mL (mouse, plasma; oral, 50 mg/kg once daily, day 7).
For NC(=O)[C@H](CCC(=O)O)NC(=O)[C@H](CCC(=O)O)NC(=O)[C@H](Cc1ccccc1)NC(=O)[C@H](Cc1ccccc1)NC(=O)OCC1c2ccccc2-c2ccccc21, the MRT was 13.2 min (mouse, blood; intravenous, 10 mg/kg, single dose).
[2H]C([2H])([18F])[C@]([2H])(N)C(=O)O gave a blood half-life of 0.59 min (dynamic PET; U-87 MG tumour-bearing mice, blood).
CSCC[C@H](N)C(=O)N[C@@H](C)C(=O)N[C@@H](CCCNC(=N)N)C(=O)N[C@@H](CCCNC(=N)N)C(=O)N[C@@H](CC(=O)O)C(=O)N[C@@H](CCCCN)C(=O)N[C@H](C(=O)N[C@@H](CC(=O)O)C(=O)N[C@@H](Cc1ccccc1)C(=O)N[C@@H](C)C(=O)N[C@@H](CCCNC(=N)N)C(=O)N[C@@H](CCCNC(=N)N)C(=O)N[C@@H](CCCNC(=N)N)C(=O)N[C@@H](CCCNC(=N)N)C(=O)NCCCCCC(=O)NCCCCC(NC(=O)CCCCCNC(=O)[C@H](CCCNC(=N)N)NC(=O)[C@H](CCCNC(=N)N)NC(=O)[C@H](CCCNC(=N)N)NC(=O)[C@H](CCCNC(=N)N)NC(=O)[C@H](C)NC(=O)[C@H](Cc1ccccc1)NC(=O)[C@H](CC(=O)O)NC(=O)[C@@H](NC(=O)[C@H](CCCCN)NC(=O)[C@H](CC(=O)O)NC(=O)[C@H](CCCNC(=N)N)NC(=O)[C@H](CCCNC(=N)N)NC(=O)[C@H](C)NC(=O)[C@@H](N)CCSC)[C@@H](C)O)C(=O)NCCCCC(NC(=O)C(CCCCNC(=O)CCCCCNC(=O)[C@H](CCCNC(=N)N)NC(=O)[C@H](CCCNC(=N)N)NC(=O)[C@H](CCCNC(=N)N)NC(=O)[C@H](CCCNC(=N)N)NC(=O)[C@H](C)NC(=O)[C@H](Cc1ccccc1)NC(=O)[C@H](CC(=O)O)NC(=O)[C@@H](NC(=O)[C@H](CCCCN)NC(=O)[C@H](CC(=O)O)NC(=O)[C@H](CCCNC(=N)N)NC(=O)[C@H](CCCNC(=N)N)NC(=O)[C@H](C)NC(=O)[C@@H](N)CCSC)[C@@H](C)O)NC(=O)CCCCCNC(=O)[C@H](CCCNC(=N)N)NC(=O)[C@H](CCCNC(=N)N)NC(=O)[C@H](CCCNC(=N)N)NC(=O)[C@H](CCCNC(=N)N)NC(=O)[C@H](C)NC(=O)[C@H](Cc1ccccc1)NC(=O)[C@H](CC(=O)O)NC(=O)[C@@H](NC(=O)[C@H](CCCCN)NC(=O)[C@H](CC(=O)O)NC(=O)[C@H](CCCNC(=N)N)NC(=O)[C@H](CCCNC(=N)N)NC(=O)[C@H](C)NC(=O)[C@@H](N)CCSC)[C@@H](C)O)C(N)=O)[C@@H](C)O (some centres unmarked) — result for “mean tissue distribution”: 0.99% (C57BL/6 mouse female, thymus; dose not given, 6 h; relative to: total).
The CD45+ cells of COc1ccc(CNc2ccc3c(c2)S(=O)(=O)C=C3)cc1 is reported as 78.4% (flow cytometry; male C57BL/6 mice, spleen; i.p., 5 mg/kg, 8 days; relative to: splenocytes).
With O=C1NC2(CC2)COc2ncc(F)cc2[C@H]2COCCN2c2ccn3ncc1c3n2 the albumin was 44.7 ± 4.5 g/L (Sprague-Dawley rat, female, serum; oral, 5 mg/kg/day, end of recovery, 4-week repeated-dose toxicity).

Repeated from above:
For NC(=O)[C@H](CCC(=O)O)NC(=O)[C@H](CCC(=O)O)NC(=O)[C@H](Cc1ccccc1)NC(=O)[C@H](Cc1ccccc1)NC(=O)OCC1c2ccccc2-c2ccccc21, the MRT was 13.2 min (mouse, blood; intravenous, 10 mg/kg, single dose).
C#Cc1c(F)ccc2cc(O)cc(-c3ncc4c(N5CC6CCC(C5)N6C(=O)OC(C)OC(=O)C5CCCC5)nc(OC[C@@]56CCCN5C[C@H](F)C6)nc4c3F)c12 (some centres unmarked) has a t1/2 of 3.25 min (item: prodrug; mouse whole blood; 1 µM).
[2H]C([2H])([18F])[C@]([2H])(N)C(=O)O gave a blood half-life of 0.59 min (dynamic PET; U-87 MG tumour-bearing mice, blood).
